Results of several laboratories.
Each numbered part is a random draw from the data of one study; scales do not carry over between parts. Substitutions count along the parent as printed.

Set 1
Target: Ras GTPase-activating protein-binding protein 1, RRM domain (G3BP1, Homo sapiens, UniProt Q13283)
Chain of UniProt Q13283 (whole entry, looked up): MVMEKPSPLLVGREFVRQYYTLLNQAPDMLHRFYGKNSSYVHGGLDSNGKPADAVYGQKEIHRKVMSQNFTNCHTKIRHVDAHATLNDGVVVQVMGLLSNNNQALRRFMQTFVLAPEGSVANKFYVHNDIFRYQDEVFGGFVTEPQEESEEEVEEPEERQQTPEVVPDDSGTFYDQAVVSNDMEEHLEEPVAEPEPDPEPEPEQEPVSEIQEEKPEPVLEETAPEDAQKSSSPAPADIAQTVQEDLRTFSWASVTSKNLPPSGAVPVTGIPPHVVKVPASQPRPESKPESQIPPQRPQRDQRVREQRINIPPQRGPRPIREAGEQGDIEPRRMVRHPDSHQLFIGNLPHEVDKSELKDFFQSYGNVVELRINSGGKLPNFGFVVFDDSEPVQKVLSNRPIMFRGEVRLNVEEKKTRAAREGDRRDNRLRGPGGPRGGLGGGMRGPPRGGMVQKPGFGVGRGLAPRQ
Technique: RNA Bind-n-Seq
Form: RNA
Medium: in vitro
Tested at: 1 µM
Notes: whole 134-nt RNA, ends assumed
With: 150 mM KCl
Reference: input library
Reading: higher = stronger binding
Constant ends, left off below: GGGAGUUCUACAGUCCGACGAUC … UGGAAUUCUCGGGUGUCAAGG
| Sequence | log2 enrichment |
| --- | --- |
| ACCAUGCAGGUGGGCAUCUUUGGGAAGUGGGGCAAGGGGGGGAUAGGGAGGGGGGUCACACUUUGGGAACAGGUGGUCCCAGGUCGUUUC | 0.719 |
| GCAAAAAGUAAAAACAAAUGGAAAUGCUUCGGAUAGUGGCAGGGGUGGGGGUUGCUAAGGAAAGGGUGGGAUGGGAGUGGGUAAAGAGUU | 1.25 |
| UGCUGUUAUCUGGAACUCCUACCUGUCCUGGAAGGCACAUCGGCUCUAAGCCUGCCUCACUCCAUCGUUUCCACCUUGCAGUGAUGCAGC | -0.284 |
| CUCAAGUCCUGUGCUACACAUCGUAUGUACCGAAUCGGGAAGGGAAGGGGAAGGAAAGUAUUAUGUUACGCCGUUCGGAUCUGCACUUCC | -0.195 |
| UGGCCCUGGUGGCAUGCGGGGAGGAAGAAGUGGCCUCAUGGAUCGUGGUGGUCCCGGUGGAAUGUUCAGAGGUGGCCGUGGUGGAGACAG | 0.837 |
| UUUCAGGGGAGCUCUUUGCUCAGGCCCCGGUGGAUCAGUUUCCUGGCACAGCUGUGGAGAGUGUGACGGAUUCCAGCAGGUACUUCGUGA | -0.382 |
| AAGUCCUGUGCUACACAUCGUAUGUACCGAAUCGGGAAAGGGGAAAGGGGAAAGGGGAAAGUAUUAUGUUACGCCGUUCGGAUCUGCACU | 0.544 |
| ACCAUGCAGGUGGGCAUCUUUGGGAAGUGGGGCAAGGGGGGGAUAGGGAGGGGGGUGACACUUUGGGAACAGGUGGUCCCAGGUCGUUUC | 0.922 |
| GAGGAGACUCUGCGCAGAGCACUUUGGGUCCGGAGGGCGAGACUCCGGCGGAAGCAUUCCCGGGCGGGUGACCCAGCACGGUCCCUCUUG | -0.824 |

Set 2
Target: POU domain, class 5, transcription factor 1, POU domain (Pou5f1, Mus musculus, UniProt P20263, residues 131-289)
Chain of UniProt P20263 (131-289, looked up): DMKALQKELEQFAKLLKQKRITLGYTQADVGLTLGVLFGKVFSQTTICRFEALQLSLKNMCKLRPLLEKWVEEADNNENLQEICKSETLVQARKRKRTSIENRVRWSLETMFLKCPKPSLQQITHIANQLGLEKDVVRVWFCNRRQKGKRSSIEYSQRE
Technique: Spec-seq
Form: double-stranded DNA, one strand shown
Medium: in vitro
Tested at: not given
Notes: whole probe, mean of replicates
Reference: not given
Reading: lower = stronger binding
Constant ends, left off below: GAGTCGTCTCGTCAGCAC … CCGTAGAGCACTCAGGTC
| Sequence | relative binding energy |
| --- | --- |
| CCTATAAT | 0.709 ln ratio |
| ATGCCCAG | 0.759 ln ratio |
| TTATTAAT | -0.288 ln ratio |
| ATGCAACT | -0.156 ln ratio |
| ATCTTAAT | 0.147 ln ratio |
| ACAATAAT | 0.182 ln ratio |
| ATATTTAT | -0.628 ln ratio |
| ATGCAAGA | -0.275 ln ratio |
| ATGGTCAT | 0.657 ln ratio |
| ATGCTGAA | 0.39 ln ratio |
| ATACTCAT | 0.207 ln ratio |

Set 3
Target: CCNF, cyclin fold, Cln2 fusion (human)
Technique: yeast growth competition, sequencing
Medium: yeast
Notes: strong parent motif
Reference: not given
Reading: higher = stronger binding
Parent: E2F1 docking peptide (human); PPVKRRLDFETDH
| Substitution | normalised enrichment score |
| --- | --- |
| PMVKRRLDFETDH [P2M] | 8 |
| PPVKRRLMFETDH [D8M] | 7.9 |
| PPVKRRLDHETDH [F9H] | 0.97 |
| PPVLRRLDFETDH [K4L] | 5.92 |
| PSVKRRLDFETDH [P2S] | 7.8 |
| PPVKRRLDFETCH [D12C] | 7.76 |

Other studies, line by line
| Molecule | target or system | assay | test system | conditions | scale | endpoint | value |
| --- | --- | --- | --- | --- | --- | --- | --- |
| SNRNP200 (Homo sapiens, UniProt O75643) | PGD (Homo sapiens, UniProt P52209) | cross-linking MS | cell fractions | with: DSSO | – | cross-linked residues | T1409 to K59 |
| PhoQ, residues 284 288 289 292 302 303 QWQEDG | PhoP, residues 12 14 15 18 19 LHATL (Escherichia coli, UniProt P23836) | Sort-seq, item: YFP reporter | E. coli | PhoQ-PhoP variant library, with: 10 µM Mg2+ | reference: high Mg2+ state, higher = stronger signaling | fold induction | 8.76 |

Repeated from above (set 2):
| Sequence | relative binding energy |
| --- | --- |
| ACAATAAT | 0.182 ln ratio |
| ATGGTCAT | 0.657 ln ratio |
| ATGCAACT | -0.156 ln ratio |
| TTATTAAT | -0.288 ln ratio |
